# Measured values pooled from the literature.
# Each line is one published result; not all experiments were run side by side. ± marks the error that the study gave.
SMILES,cell line,assay,test system,conditions,scale,endpoint,result
C[C@H](NC(=O)[C@H](CCCNC(=N)N)NC(=O)[C@H](CCC(=O)O)NC(=O)[C@H](CCCNC(=N)N)NC(=O)[C@H](CCCNC(=N)N)NC(=O)[C@@H](NC(=O)[C@H](CCCNC(=N)N)NC(=O)[C@H](C)NC(=O)[C@H](CCCNC(=N)N)NC(=O)[C@H](CCC(=O)O)NC(=O)[C@@H](N)CCCNC(=N)N)[C@@H](C)O)C(=O)N[C@@H](CCCNC(=N)N)C(=O)N[C@H](C(=O)N[C@@H](CCCNC(=N)N)C(=O)N[C@@H](CCC(=O)O)C(=O)N[C@@H](CCCNC(=N)N)C(=O)N[C@@H](C)C(=O)N[C@@H](CCCNC(=N)N)C(=O)N[C@H](C(=O)N[C@@H](CCCNC(=N)N)C(=O)O)[C@@H](C)O)[C@@H](C)O,A-375,"western blot, measured: VEGF165b",,25 µM,,protein level,increased
COc1cc(C)cc2c1OCO2,DU-145,"cell growth or viability, MTT",,72 h,,GI50,> 250000 nM
Cc1ccc(Nc2ncc3c(n2)N(C)C(=O)N(c2cc(NC(=O)c4cc(-n5cnc(C)c5)cc(C(F)(F)F)c4)ccc2C)C3)cn1,Huh-7,"cell growth or viability, ATP luminescence",,72 h,,GI50,37 nM
CC(C)c1cnn2c(NCc3ccccc3)cc(N[C@@H](CO)[C@H](O)CO)nc12,NIH-3T3 pHamdr1 (ABCB1-overexpressing),"cell growth, sulforhodamine B",,,reference: pHamdr1 over parental 3T3,resistance factor,10 fold
CNC(=O)c1cc(Oc2ccc(NC(=O)c3ccc(-c4cccc(COC(=O)CCC(=O)OC5OC6OC7(C)CCC8C(C)CCC(C5C)C68OO7)c4)cn3)cc2)ccn1 (centres unmarked),Huh-7,annexin V/PI flow cytometry,,"5 µM, 24 h",,apoptotic cells,17.2%
CC(C)[C@]12O[C@H]1[C@@H]1O[C@]13[C@]1(O[C@H]1C[C@H]1c4c(C(=O)c5ccccc5)oc(OC(=O)c5ccccc5)c4CC[C@@]13C)[C@@H]2O,MV4-11,cell viability,,72 h,reference: compound over triptolide,IC50 ratio,2.9
CSCC[C@@H](NC(=O)[C@@H](CC(C)C)NC(=O)CNC(=O)[C@@H](Cc1ccccc1)NC(=O)[C@@H](Cc1ccccc1)NC(=O)[C@@H](CCC(N)=O)NC(=O)[C@@H](CCC(N)=O)NC(=O)[C@H]1CCCN1C(=O)[C@@H](CCCCN)NC(=O)[C@H]1CCCN1C(=O)[C@H](N)CCCNC(=N)N)C(N)=O,rat peritoneal mast cells,histamine release,,"10 min, 37 °C, added: 2 mM CaCl2",,EC25,29000 ± 4600 nM
Cc1cc(C)c(-n2ccn(-c3c(C)cc(C)cc3C)c2=[Se])c(C)c1.[Cl][Au],A-375,"cell growth or viability, MTT",,72 h,,IC50,700 nM
CCCCCCCCCCCCN(CCCCCCCCCCCC)[C@H]1C=C[C@]2(O[C@H]([C@@H](CC)C(=O)[C@@H](C)[C@@H](O)[C@H](C)[C@@H]3O[C@@H]([C@@H](CC)C(=O)O)CC[C@@H]3C)[C@@H](C)C[C@H]2C)O[C@@]12CC[C@@](C)([C@H]1CC[C@](O)(CC)[C@H](C)O1)O2,HMLER CD24low/CD44high,"cell viability, CellTiter-Blue",,72 h,reference: IC50 HMLER CD24high/CD44low over CD24low/CD44high,selectivity ratio,5.2
COc1cc(C)c(OC)c2c1OCO2,T47D,cell growth or viability,,72 h,,GI50,> 250000 nM
CC1(C)CC([n+]2cc([NH-])on2)CC(C)(C)N1O,hTM-80,superoxide dismutase activity,,concentration not given,reference: vehicle,fold increase,40 fold
C=CCc1cc(OC)c(OC)c(OC)c1OC,T47D,"cell growth or viability, MTT",,72 h,,GI50,> 250000 nM
CC(=O)N[C@@H](CCCCN)C(=O)N[C@H](C(=O)NCC(=O)N[C@@H](CC(=O)O)C(=O)N[C@@H](CCC(=O)O)C(=O)N[C@@H](CCCCN)C(=O)N[C@@H](CCCCN)C(=O)NCC(=O)NCC(=O)N[C@@H](Cc1ccc(O)cc1)C(=O)NCC(=O)N[C@@H](CCCNC(=N)N)C(=O)N[C@@H](CCCCN)C(=O)N[C@@H](CCCCN)C(=O)N[C@@H](CCCNC(=N)N)C(=O)N[C@@H](CCCNC(=N)N)C(=O)N[C@@H](CCC(N)=O)C(=O)N[C@@H](CCCNC(=N)N)C(=O)N[C@@H](CCCNC(=N)N)C(=O)N[C@@H](CCCNC(=N)N)C(N)=O)[C@@H](C)O,Huh-7,"apoptosis, flow cytometry",,"40 µM, 16 h",,caspase-3 positive cells,2.23%
COc1ccccc1/C=C/[N+](=O)[O-],MV4-11,cell growth or viability,,72 h,,CC50,1260 nM
CC(C)CC(O)(CC(C)C)c1cn(C(=O)N2CCCC2)nn1,mouse T-cells,"protein abundance, unenriched SILAC proteomics, measured: TFG",,"1 nM, 6 h, protein median",reference: DMSO,SILAC ratio,0.93 ± 0.15
CCC[P+](c1ccccc1)(c1ccccc1)c1ccccc1,DU-145,"cell growth or viability, MTT",,72 h,,GI50,1060 nM
CC[C@H](C)[C@H](NC(=O)[C@H](CC(N)=O)NC(=O)[C@H](CCCCN)NC(=O)[C@H](Cc1ccccc1)NC(=O)[C@H](Cc1ccccc1)NC(=O)[C@H](Cc1c[nH]cn1)NC(=O)[C@@H](NC(=O)[C@@H](NC(=O)[C@@H]1CCCN1C(=O)[C@@H](N)CC(N)=O)C(C)C)C(C)C)C(=O)N[C@H](C(=O)N[C@H](C(=O)N[C@@H](C)C(=O)O)[C@@H](C)O)C(C)C,T cell clone Ob.2G9,"T cell proliferation, agonist, [3H]thymidine incorporation",,"72 h, peptide-pulsed APC, added: EBV-transformed B cells DR2/DQ6 as APC",,EC50,> 50000 nM
COC[C@H](NC(C)=O)C(=O)NCc1ccccc1,CAD,"sodium current slow inactivation, whole-cell patch clamp",,"100 µM, 8 s prepulse",,fraction of available current,0.35 ± 0.03
N=C(N)NCCC[C@H](N)C(=O)NCC(=O)N[C@@H](CCC(=O)O)C(=O)O,NIH 3T3 fibroblasts,,peptide-functionalised PEG-glass,"concentration not given, 4 h, serum-free, per 10× image",,adherent cell number,20 ± 5.3
CC[C@H](C)[C@H](NC(=O)[C@H](CCC(=O)O)NC(=O)CNC(=O)[C@@H](NC(=O)[C@H](CC(C)C)NC(=O)[C@H](CC(C)C)NC(=O)[C@H](CC(C)C)NC(=O)[C@H](CC(C)C)NC(=O)[C@H](CS)NC(=O)[C@H](CO)NC(=O)[C@H](Cc1ccccc1)NC(=O)CNC(=O)[C@H](CCCNC(=N)N)NC(=O)[C@@H]1CCCN1C(=O)[C@H](C)NC(=O)[C@H](CCSC)NC(=O)CNC(=O)CNC(=O)[C@H](Cc1ccccc1)NC(=O)[C@H](CCCCN)NC(=O)[C@H](Cc1c(C)cc(O)cc1C)NC(=O)[C@H](N)CCCNC(=N)N)[C@@H](C)O)C(=O)N[C@@H](CC(=O)O)C(=O)N[C@@H](CC(C)C)C(=O)N1CCC[C@H]1C(=O)N[C@H](C(=O)N[C@@H](CCCCN)C(=O)N[C@@H](CCCNC(=N)N)C(=O)N[C@@H](CCCNC(=N)N)C(=O)N[C@@H](C)C(N)=O)C(C)C,HT-22,"western blot, measured: MnSOD",,"10 µM, 24 h, added: amyloid beta 42 2 µM",reference: HNG plus SS-31,protein level,136%
CC[C@H](C)[C@H](NC(=O)CN)C(=O)NCC(=O)N[C@@H](C)C(=O)N[C@H](C(=O)N[C@@H](CC(C)C)C(=O)N[C@@H](CCCCN)C(=O)N[C@H](C(=O)N[C@@H](CC(C)C)C(=O)N[C@H](C(=O)N[C@H](C(=O)NCC(=O)N[C@@H](CC(C)C)C(=O)N1CCC[C@H]1C(=O)N[C@@H](C)C(=O)N[C@@H](CC(C)C)C(=O)N[C@H](C(=O)N[C@@H](CO)C(=O)N[C@@H](Cc1c[nH]c2ccccc12)C(=O)N[C@H](C(=O)N[C@@H](CCCCN)C(=O)N[C@@H](CCCNC(=N)N)C(=O)N[C@@H](CCCCN)C(=O)N[C@@H](CCCNC(=N)N)C(=O)N[C@@H](CCC(N)=O)C(=O)N[C@@H](CCC(N)=O)C(N)=O)[C@@H](C)CC)[C@@H](C)CC)[C@@H](C)O)[C@@H](C)O)C(C)C)C(C)C,MCF7 FAP-transfected,"cell viability, MTT",,72 h,,IC50,1300 ± 200 nM
CN1C(=O)C2(Cc3ccc(CC45SSC(CO)(C(=O)N4C)N(C)C5=O)cc3)SSC1(CO)C(=O)N2C (racemic),MCF7,microarray,,"600 nM, ≥2-fold change, added: deferoxamine",,transcriptome share affected,1.4%
[Cl][Au].[Se]=c1n(C2CCCCC2)ccn1C1CCCCC1,A2780 ADR,MTT,,72 h,,IC50,200 ± 20 nM
CC[C@H](C)[C@H](NC(=O)[C@H](Cc1ccccc1)NC(=O)[C@H](CC(=O)O)NC(=O)[C@H](CCCCN)NC(=O)[C@H](C)NC(=O)[C@H](CCCCN)NC(=O)[C@H](CC(N)=O)NC(=O)[C@H](CC(C)C)NC(=O)[C@H](Cc1c[nH]c2ccccc12)NC(=O)[C@H](CCC(=O)O)NC(=O)[C@H](CCCCN)NC(=O)[C@@H](NC(=O)CNC(=O)[C@H](C)N)[C@@H](C)O)C(=O)N[C@@H](CCCCN)C(=O)N[C@@H](CCC(=O)O)C(=O)N[C@@H](CCCCN)C(=O)NCC(=O)N[C@@H](CC(C)C)C(=O)N[C@@H](CCC(=O)O)C(=O)N[C@@H](CCSC)C(=O)N[C@@H](CC(C)C)C(=O)N[C@@H](CO)C(=O)N[C@@H](C)C(=O)N[C@@H](C)C(=O)N[C@@H](C)C(=O)N[C@@H](CC(N)=O)C(=O)N[C@@H](C)C(=O)N[C@@H](C)C(=O)N[C@@H](CC(C)C)C(=O)N[C@@H](CC(N)=O)C(=O)O,F11 cells,"intracellular calcium, FLIPR",,0.1% BSA,,EC50,> 100000 nM
COc1cc2c3cc1Oc1cc(ccc1O)CC1c4c(cc(OC)c(O)c4Oc4ccc(cc4)CC3N(C)CC2)CCN1C (centres unmarked),Huh-7,,,,reference: Huh-7 CC50 over INDO IC50,selectivity index,123
COc1cc(C)c(OC)c(OC)c1OC,A-375,"cell growth or viability, MTT",,72 h,,GI50,> 250000 nM
N=C(N)Nc1ccc(-c2nc3ccc(-c4ccc5nc(-c6ccc(NC(=N)N)cc6)[nH]c5c4)cc3[nH]2)cc1,"FECD cells, XRN1 siRNA knock-down",RT-qPCR,,concentration not given,,TCF4 intron 3 level,no effect
CC[C@H](C)[C@@H]1NC(=O)[C@H](Cc2c[nH]c3ccccc23)NC(=O)[C@H](CCCCCC(=O)NO)NC(=O)[C@H]2CCCCN2C1=O,iPSC-derived neural progenitor cells,ELISA,,"1 µM, 18 h",reference: vehicle,intracellular progranulin level,~2.5 fold increase
CCCCCCCCC[P+](c1ccccc1)(c1ccccc1)c1ccccc1,A-375,"cell growth or viability, MTT",,72 h,,GI50,254 nM
CC/C=C\C/C=C\C/C=C\C/C=C\C/C=C\C/C=C\CCC(=O)Nc1ccn(C2OC(CO)C(O)C2(F)F)c(=O)n1 (centres unmarked),OVCAR-3,NCI60 screen,,,,CC50,49600 nM
CCCCCCCCCCCCCCCC[P+](c1ccccc1)(c1ccccc1)c1ccccc1,T47D,cell growth or viability,,72 h,,GI50,398 nM
CC[C@@]1(O)C(=O)OCc2c1cc1n(c2=O)Cc2cc3cc(OC(=O)CCCC(=O)NCC(=O)N[C@@H](Cc4ccccc4)C(=O)N[C@@H](Cc4ccccc4)C(=O)N[C@@H](Cc4ccc(OP(=O)(O)O)cc4)C(=O)NCCSSCCNC(=O)CCC(=O)N[C@@H](CCC(=O)O)C(=O)N[C@@H](CCCNC(=N)N)C(=O)NCC(=O)N[C@@H](CC(=O)O)C(=O)O)ccc3nc2-1,HepG2 spheroids,confocal microscopy,,"100 µM, 6 h",,penetration depth,100 µm
CCCc1cc(OC)c2c(c1OC)OCO2,T47D,cell growth or viability,,72 h,,GI50,> 250000 nM
CC[C@H](C)[C@H](NC(=O)CNC(=O)[C@H](CC(C)C)NC(=O)CNC(=O)[C@H](CCCCN)NC(=O)[C@H](CCC(=O)O)NC(=O)[C@H](CCCCN)NC(=O)[C@@H](NC(=O)[C@H](Cc1ccccc1)NC(=O)[C@H](CC(=O)O)NC(=O)[C@H](CCCCN)NC(=O)[C@H](C)NC(=O)[C@H](CCCCN)NC(=O)[C@H](CC(N)=O)NC(=O)[C@H](CC(C)C)NC(=O)[C@H](Cc1c[nH]c2ccccc12)NC(=O)[C@H](CC(=O)O)NC(=O)[C@H](CCCCN)NC(=O)[C@@H](NC(=O)CNC(=O)[C@H](C)N)[C@@H](C)O)[C@@H](C)CC)C(=O)N[C@@H](CC(C)C)C(=O)N[C@@H](CO)C(=O)N[C@@H](C)C(=O)N[C@@H](C)C(=O)N[C@@H](C)C(=O)N[C@@H](CC(N)=O)C(=O)N[C@@H](C)C(=O)N[C@@H](C)C(=O)N[C@H](C(=O)N[C@@H](CC(N)=O)C(=O)O)[C@@H](C)CC,HEK293 cells,"intracellular calcium, FLIPR",,0.1% BSA,,EC50,> 100000 nM
C=C1C(=O)O[C@H]2[C@H]1CCC(COC(=O)c1ccc(F)cc1)=C1CC[C@@](C)(O)[C@@H]12,M9-ENL1 leukaemia cells,annexin V/7-AAD flow cytometry,,"24 h, 5% human plasma",,CC50,4800 nM
